Results of several laboratories.
Protocols differ between the studies behind these lines. Values joined by “and” are separate records of one study, mostly repeats; a detail may differ.
Target: Sodium-dependent serotonin transporter (SLC6A4, Homo sapiens, UniProt P31645)

`CCN(CC)CCOc1ccc(-c2nnn(Cc3ccc(OC)cc3)c2N)cc1` has an inhibition of -10.1% (radioligand binding; 10 µM, human, added: radioligand 10000 nM).
For `CCCO[C@H]1[C@H](O)[C@@H](N)[C@@H](O[C@H]2[C@H](O[C@@H]3O[C@H](CO)[C@@H](O[C@H]4O[C@@H](CN)[C@@H](O)[C@H](O)[C@H]4N)[C@H]3O)[C@@H](O)[C@H](N)C[C@@H]2N)O[C@@H]1CO`, the specific binding was 5% (radioligand binding; 10 µM, 1% DMSO).
For `C/C(=N\OCCCN1CCCCC1)c1ccc(C(F)(F)F)cc1`, the inhibition was 66.4% (uptake, inhibitor; 10 µM).
With `COc1ccc(F)cc1S(=O)(=O)Nc1cnc2c(c1)C(=O)NCCO2` the inhibition was 1% (ligand displacement, radioligand; 10 µM).
With `CCOC(=O)[C@](CC)(CCCSCCOCCOCCNC(=O)c1ccc(-c2c3ccc(=N)c(S(=O)(=O)O)c-3oc3c(S(=O)(=O)O)c(N)ccc23)c(C(=O)O)c1)NC(=O)c1ccc(C2CC2)c(Cc2ccc(F)cc2)n1` the inhibition was -8% (ligand displacement, radioligand; 10 µM).
With `N[C@H](C(=O)N1CCCC1)C1CCN(c2nccc3c(-c4ncc(Cl)cc4Cl)cccc23)CC1` the inhibition was 27% (ligand displacement; 10 µM).
`Cc1sc2c(c1C)C(c1ccc(Cl)cc1)=NC(CC(=O)OC(C)(C)C)c1nnc(C)n1-2` (stereo not shown) has an inhibition of -19% (ligand displacement, radioligand; 1 µM).
`CS(C)(=O)=Nc1ccc(-c2ccc(-c3nc4cc(O[C@@H]5CO[C@H]6[C@@H]5OC[C@H]6O)[nH]c4cc3F)cc2)cc1` has an inhibition of 2% (ligand displacement, radioligand; 10 µM).
The specific binding of `O=C(O)c1ccc(-c2nc(-c3ccccc3Cl)c3sccn23)cc1` is reported as 98.1% and 94% (radioligand binding, safety screen panel; 10 µM; reference: control).
With `CN[C@@H]1[C@H](O)[C@H](NC)[C@H]2O[C@]3(O)[C@H](O[C@@H]2[C@H]1O)O[C@H](C)C[C@H]3NC(=O)Cc1ccc(Cl)cn1` the inhibition was 1% (ligand displacement, radioligand; 10 µM).
`Cc1cc(Nc2nc(C[C@@]3(C(=O)O)CCN(Cc4cccc(Cl)c4F)[C@H](C)C3)cc(C)c2F)[nH]n1` has an inhibition of 10.1% (inhibitor; 10 µM).
With `C[C@H](NCc1ccc(-c2ccc(C(F)(F)F)cc2)cc1)C(N)=O` the inhibition was -3% (radioligand binding, SafetyScreen panel; 1 µM, added: 0.40 nM [3H]Paroxetine).
The remaining binding of `CCc1nnc(-c2c(OC)cc(-c3cnc4cc(-c5cnn(C)c5)ccn34)cc2OC)o1` is reported as 104% (antagonist radioligand, radioligand binding; 10 µM, SafetyScreen44 5-HT transporter mean; lower = stronger displacement).

Excerpt of the above:
`CS(C)(=O)=Nc1ccc(-c2ccc(-c3nc4cc(O[C@@H]5CO[C@H]6[C@@H]5OC[C@H]6O)[nH]c4cc3F)cc2)cc1` has an inhibition of 2% (ligand displacement, radioligand; 10 µM).
With `COc1ccc(F)cc1S(=O)(=O)Nc1cnc2c(c1)C(=O)NCCO2` the inhibition was 1% (ligand displacement, radioligand; 10 µM).
